Measured values pooled from the literature.
A part holds a random share of what one study measured. Positions count from the first letter of the parent shown.

Sample 1
Target: Ras GTPase-activating protein-binding protein 1, RRM domain (G3BP1, Homo sapiens, UniProt Q13283)
Chain of UniProt Q13283 (whole entry, looked up): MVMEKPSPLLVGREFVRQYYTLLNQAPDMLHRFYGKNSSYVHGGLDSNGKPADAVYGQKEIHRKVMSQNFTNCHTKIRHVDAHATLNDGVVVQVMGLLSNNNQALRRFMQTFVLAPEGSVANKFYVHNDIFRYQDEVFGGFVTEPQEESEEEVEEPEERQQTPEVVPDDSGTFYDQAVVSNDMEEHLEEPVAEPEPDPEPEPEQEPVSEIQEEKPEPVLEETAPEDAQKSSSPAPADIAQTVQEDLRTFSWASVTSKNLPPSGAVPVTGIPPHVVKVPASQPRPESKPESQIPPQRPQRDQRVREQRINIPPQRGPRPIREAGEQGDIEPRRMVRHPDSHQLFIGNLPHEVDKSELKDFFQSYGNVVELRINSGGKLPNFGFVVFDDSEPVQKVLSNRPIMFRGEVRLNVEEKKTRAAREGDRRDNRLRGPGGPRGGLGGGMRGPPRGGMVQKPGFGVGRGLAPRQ
Technique: RNA Bind-n-Seq
Molecule type: RNA
Sample: in vitro
Tested at: 1 µM
Notes: whole 134-nt RNA, ends assumed
With: 150 mM KCl
Reference: input library
Direction: higher = stronger binding
`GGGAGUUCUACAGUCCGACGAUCCAAGUCCUGUGCUACACAUCGUAUGUACCGAAUCGGAAAAAAAGGAAAAAGGUGGAAAGUAUUAUGUUACGCCGUUCGGAUCUGCACUUCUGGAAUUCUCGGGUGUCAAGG` gave a log2 enrichment of -0.07.
`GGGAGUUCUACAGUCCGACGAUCAAGUCCUGUGCUACACAUCGUAUGUACCGAAUCGGAAAAAAAGGAAAAAGGUUUGGAAAGUAUUAUGUUACGCCGUUCGGAUCUGCACUUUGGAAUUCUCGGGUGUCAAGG` gave a log2 enrichment of -0.222.
`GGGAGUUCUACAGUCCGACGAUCUCCUGUGCUACACAUCGUAUGUACCGAAUCGGGGAAAAAGGGGAAAAAGGGAAAAAGGGGAAAGUAUUAUGUUACGCCGUUCGGAUCUGCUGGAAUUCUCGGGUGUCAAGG` has a log2 enrichment of 0.161.
For `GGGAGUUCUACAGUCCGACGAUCAAGUCCUGUGCUACACAUCGUAUGUACCGAAUCGGAAAAAAAGGUUUUUGGUUUGGAAAGUAUUAUGUUACGCCGUUCGGAUCUGCACUUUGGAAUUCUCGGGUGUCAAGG`, the log2 enrichment was -0.349.
For `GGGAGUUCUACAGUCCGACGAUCUGUGUUGUGCUCAUUACCAGUGCAGCGACUGCCGUCCCAGGGUGACUCUGAGUUGUCCUUUAUCGUGAGCUAGCAAUGGCUAGCGAAGACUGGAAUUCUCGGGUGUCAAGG`, the log2 enrichment was -0.277.
For `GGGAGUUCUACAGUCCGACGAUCAAGUCCUGUGCUACACAUCGUAUGUACCGAAUCGGGGUUUGGGGAAAGGGGUGGGGAAAGUAUUAUGUUACGCCGUUCGGAUCUGCACUUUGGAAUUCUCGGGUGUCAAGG`, the log2 enrichment was 0.972.

Sample 2
Target: CCNA2, cyclin fold, Cln2 fusion (human)
Technique: yeast growth competition, sequencing
Sample: yeast
Notes: strong parent motif
Reference: not given
Direction: higher = stronger binding
Starting sequence: RBL2 docking peptide (human); STTRRRLFVENDS
For `STARRRLFVENDS [T3A]`, “normalised enrichment score” read 6.11.
Under “normalised enrichment score”, `STTRRRLFVENCS [D12C]` is recorded as 5.76.
Under “normalised enrichment score”, `STPRRRLFVENDS [T3P]` is recorded as 4.29.
For `STTRRHLFVENDS [R6H]`, “normalised enrichment score” read 1.06.

Sample 3
Target: Centromere-binding protein 1, full length, N-terminal tag (CBF1, Saccharomyces cerevisiae, UniProt P17106, residues 1-351)
Chain of UniProt P17106 (whole entry, looked up): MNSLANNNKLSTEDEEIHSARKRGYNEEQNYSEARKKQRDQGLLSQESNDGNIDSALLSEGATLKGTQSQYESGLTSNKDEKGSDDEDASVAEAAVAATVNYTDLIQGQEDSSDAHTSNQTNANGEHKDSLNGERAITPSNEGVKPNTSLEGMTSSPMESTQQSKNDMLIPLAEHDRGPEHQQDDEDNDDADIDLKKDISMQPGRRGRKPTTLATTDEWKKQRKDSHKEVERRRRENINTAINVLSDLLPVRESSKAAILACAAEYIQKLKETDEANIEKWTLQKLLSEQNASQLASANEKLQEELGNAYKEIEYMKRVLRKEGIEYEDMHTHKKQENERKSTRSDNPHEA
Technique: protein-binding microarray
Molecule type: double-stranded DNA, one strand shown
Sample: in vitro
Tested at: 0.8 µM
Notes: whole 60-bp probe, no competitor
Direction: higher = stronger binding
`GAAAATCACAAGGATCAGGAGGAAAAGAAAAAATAGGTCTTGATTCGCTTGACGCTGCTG` has a fluorescence intensity of 610 a.u.
For `GAATTTCTTTTTCATCAGGTACCATAATGAAAATAGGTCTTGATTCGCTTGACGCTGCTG`, the fluorescence intensity was 578 a.u.
For `GAAGCGGACCAAGATCACGTACCATGTGCAGAATAGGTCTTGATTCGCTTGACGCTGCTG`, the fluorescence intensity was 1250 a.u.
`GAAAGTAGGACGATTTACACCTGAGTTGGGTGTTAGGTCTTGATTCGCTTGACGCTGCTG` has a fluorescence intensity of 525 a.u.
The fluorescence intensity of `GAAATTCCAGCACCACTCGTGCAAGACGTACCATAGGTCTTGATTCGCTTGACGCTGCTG` is reported as 539 a.u.
`CTACAGTAGCAACAACACGTTTTCTTGGATGATTTCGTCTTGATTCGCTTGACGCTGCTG` gave a fluorescence intensity of 586 a.u.
For `CCTAACTACTATAATCATGTAACATAGCTTCGTACAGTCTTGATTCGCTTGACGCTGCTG`, the fluorescence intensity was 541 a.u.

Further values, each from its own experiment
`PhoQ, residues 284 288 289 292 302 303 SMYGEC` has a fold induction of 9.83 (PhoP, residues 12 14 15 18 19 NHFIF (Escherichia coli, UniProt P23836); Sort-seq, measured: YFP reporter; E. coli; PhoQ-PhoP variant library, with: 10 µM Mg2+; reference: high Mg2+ state, higher = stronger signaling).

For quick reference, copied from above (sample 2):
Under “normalised enrichment score”, `STPRRRLFVENDS [T3P]` is recorded as 4.29.
For `STTRRHLFVENDS [R6H]`, “normalised enrichment score” read 1.06.
